Experimental data of several laboratories.
Each numbered part is a random draw from the data of one study; scales do not carry over between parts. Substitutions count along the parent as printed.

Study 1 — method: RNA Bind-n-Seq; molecule type: RNA; medium: in vitro; tested at: 20 nM; notes: 6-mer, flanks averaged, single round; with: 150 mM LiCl; baseline: input library; reading: higher = stronger binding; quantity: 6-mer enrichment (R)
Target: TAR DNA-binding protein 43, full length, His tag (TARDBP, Homo sapiens, UniProt Q13148, residues 1-414)
GGAGGA: 1.15
AUGACU: 0.842
CAUUAG: 0.877
GAACCC: 0.956
GGCUAA: 0.915
UCUCAA: 0.823
UCUACC: 0.868
GUAAGG: 1.11
UCGGGU: 1
CUACUG: 0.869
GGUCGU: 1.07
AGAAAU: 0.848
GAUGAA: 0.992
UUUAUG: 1.24

Study 2 — method: protein-binding microarray; molecule type: double-stranded DNA, one strand shown; medium: in vitro; tested at: 2540 nM top; notes: 60-bp whole probe; with: salmon DNA 0.4 mg/ml; baseline: random background probes; reading: higher = stronger binding; quantity: fitted relative affinity; shared flanks, not repeated: GCCTAGCAC … GTCTTGATTCGCTTGACGCTGCTG
Target: Interferon regulatory factor 3, full length, phosphomimetic (IRF3, Homo sapiens, UniProt Q14653, residues 1-427, S386D/S396D/S398D/S402D/T404D/S405D)
Residues (chain): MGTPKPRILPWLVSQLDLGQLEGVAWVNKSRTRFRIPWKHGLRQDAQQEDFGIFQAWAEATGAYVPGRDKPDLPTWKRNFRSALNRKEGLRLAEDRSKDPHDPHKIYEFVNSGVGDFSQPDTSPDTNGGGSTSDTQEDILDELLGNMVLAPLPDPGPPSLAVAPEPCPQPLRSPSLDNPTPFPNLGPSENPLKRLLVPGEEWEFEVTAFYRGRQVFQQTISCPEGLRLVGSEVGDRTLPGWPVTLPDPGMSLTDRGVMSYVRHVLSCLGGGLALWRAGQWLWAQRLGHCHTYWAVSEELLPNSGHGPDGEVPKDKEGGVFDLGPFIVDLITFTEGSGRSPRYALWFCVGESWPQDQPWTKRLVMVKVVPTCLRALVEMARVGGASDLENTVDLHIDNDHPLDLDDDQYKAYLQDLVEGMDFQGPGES
GACGGACTTCTTCTCCTGACGTGCTAG: 0.391 z-score
CTAGGTATCGGTATCGGTTAGTGCTAG: 5.31 z-score
GACGGACTGCTACTGCTGAAGTGCTAG: -0.593 z-score
GACGGACTGGGTTTCGGTACGTGCTAG: 3.35 z-score
GCCGGTTTCCTTATCCTGACGTGCTAG: 7.74 z-score
GACGAACTGGGATTTCGAGACGTGCTA: -0.147 z-score
GACGATTTCGGGACTGGAGAAGTGCTA: 1.93 z-score
GACGGATTGGACTTTCGGGACGTGCTA: 0.416 z-score
TTAGGAATGGGTCTCGGTTAGTGCTAG: -0.45 z-score
CCAGCAGGGTTAGGCTTGCTGTGCTAG: -0.805 z-score
TCAAGACTCATAATGGCACTGTGCTAG: -0.441 z-score
GACGGTATCGACACTGGGGACGTGCTA: 0.548 z-score
TTAGATATCGGCTTTCGATTAGTGCTA: 0.427 z-score
TTAGGTATCGGGTATCCGTTAGTGCTA: 1.99 z-score
TCAGTTTTACTTTCTATACTGTGCTAG: 5.3 z-score
GACGATTTCAGGTCCGAGACGTGCTAG: 1.31 z-score
CTTAGTATTTTTTTCCAGAGGTGCTAG: 1.28 z-score
AGAGAGAGTGAGGAACAACAGTGCTAG: -0.706 z-score
TTAGGTCTCCTTCTCCTGTAGTGCTAG: 4.28 z-score
TTAGGTAACCTTCTCCTTTAGTGCTAG: 2.52 z-score
TAAGGTTTCGGGACTGGGTTAGTGCTA: 4 z-score
GACGGTCTCGGTCTCGTGACGTGCTAG: 1.35 z-score
TTAGAACTGGGGTATCGCTTAGTGCTA: -0.649 z-score
GACGGTCTCCTTTGCCTGACGTGCTAG: 1.19 z-score

Study 3 — target: CCNE2, cyclin fold, Cln2 fusion (human); method: yeast growth competition, sequencing; medium: yeast; notes: weak parent motif; baseline: not given; reading: higher = stronger binding; quantity: normalised enrichment score
Parent: CABLES2 docking peptide (human); ICAKRSLCAAFSV
ICAKRSACAAFSV [L7A]: -0.0193
ICAKRALCAAFSV [S6A]: 0.867
ICAARSLCAAFSV [K4A]: 0.37
ICAKASLCAAFSV [R5A]: 0.139
ICAKRSLCAAFAV [S12A]: 0.658

Study 4 — method: DHFR PCA, dose-response; medium: yeast; notes: Hill fit, mean, not affinity; with: (+)-ABA, dose series; reading: lower = more sensitive; quantity: ABA EC50
Target: ABI1, truncated, D143A, DHFR fusion (Arabidopsis thaliana, UniProt P49597)
Parent: PYL1, truncated, DHFR fusion (Arabidopsis thaliana, UniProt Q8VZS8); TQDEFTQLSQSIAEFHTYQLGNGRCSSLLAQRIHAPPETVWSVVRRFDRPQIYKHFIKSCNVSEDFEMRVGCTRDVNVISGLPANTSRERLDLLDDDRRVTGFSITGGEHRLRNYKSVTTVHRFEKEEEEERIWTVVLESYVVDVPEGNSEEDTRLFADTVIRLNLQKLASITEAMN
A84G: 8.1 µM
K116M: 68 µM
F5M: 2.61 µM
E127P: 1.73 µM
R46P: 184 µM
V161Y: 84.6 µM
L28R: 17.1 µM
V62P: 54.7 µM
F124V: 2.29 µM
D65L: 12.7 µM
T101V: 7.7 µM
V78P: 80.9 µM
P36A: 3.74 µM
A13S: 3.34 µM
N22V: 2.02 µM
F56L: 2.91 µM
A13D: 3.77 µM
K58M: 14.4 µM
Q31I: 14.5 µM
H34K: 4.21 µM

Study 5 — method: RNA Bind-n-Seq; molecule type: RNA; medium: in vitro; tested at: 200 nM; notes: whole 134-nt RNA, ends assumed; with: 150 mM LiCl; baseline: input library; reading: higher = stronger binding; quantity: log2 enrichment; all molecules: 7-deaza-guanosine replaces G
Target: Ras GTPase-activating protein-binding protein 1, full length (G3BP1, Homo sapiens, UniProt Q13283)
Sequence of UniProt Q13283 (whole entry, looked up): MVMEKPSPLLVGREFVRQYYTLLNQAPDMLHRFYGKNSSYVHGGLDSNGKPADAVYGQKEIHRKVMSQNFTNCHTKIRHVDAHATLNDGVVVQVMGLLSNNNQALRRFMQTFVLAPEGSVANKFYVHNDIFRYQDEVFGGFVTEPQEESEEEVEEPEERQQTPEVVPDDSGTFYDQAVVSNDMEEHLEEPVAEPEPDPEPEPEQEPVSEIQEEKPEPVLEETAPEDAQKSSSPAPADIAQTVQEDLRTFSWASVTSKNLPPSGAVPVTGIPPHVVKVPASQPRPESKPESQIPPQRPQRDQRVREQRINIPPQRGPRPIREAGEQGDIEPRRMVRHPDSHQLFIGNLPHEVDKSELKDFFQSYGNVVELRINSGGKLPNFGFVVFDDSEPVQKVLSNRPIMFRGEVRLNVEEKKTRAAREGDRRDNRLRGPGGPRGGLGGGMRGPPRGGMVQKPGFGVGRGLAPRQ
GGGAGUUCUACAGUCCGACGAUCCACAGACAACACGCACCCACACAGACACAGAGGGAAGGGGUUGGGGUGGGGACAGGGUGCACAGCAGGGCGGGGUAGGACCCCAGCCCCUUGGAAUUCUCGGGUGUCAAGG: 0.735
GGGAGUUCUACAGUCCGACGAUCCACAGACAACACGCAAAAACACAGACACAGAGGGAAGGGGUUGGGAUGGGGACAGGGUGCACAGCAGGGCGGGGUAGGACCCCAGCCCCUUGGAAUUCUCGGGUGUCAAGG: 0.498
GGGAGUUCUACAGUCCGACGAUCAGUCCUGUGCUACACAUCGUAUGUACCGAAUCGGGGCCCCCGGCCCCCGGGCCCCCGGAAAGUAUUAUGUUACGCCGUUCGGAUCUGCACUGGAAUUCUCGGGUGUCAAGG: -1.42
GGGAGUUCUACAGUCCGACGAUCGCAGGAAGAAAAAACAAAUGGAAAUGCUUCGGAUAGUGGCAGGGGUGGGGGUUGCUAAGGAAAGGGUGGGAUGGGAGUGGGUAAAGAGUUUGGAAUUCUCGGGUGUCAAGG: -0.031
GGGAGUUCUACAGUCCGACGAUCGCAGGAAGUAAAAACAAAGGGAAAUGCUUCGGAUAGUGGCAGGGGUGGGGGUUGCUAAGGAAAGGGUGGGAUGGGAGUGGGUAAAGAGUUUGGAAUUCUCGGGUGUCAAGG: -0.494
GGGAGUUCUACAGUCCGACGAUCUCCACCCCUUCUUCCUCCCUUUAACUUAUCCAUUCACUUAAAACAUUACCUGGUCAUCUGGUAAGCCCGGGACAGUAAGCCGAGUGGCUGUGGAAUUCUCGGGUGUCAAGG: -0.116
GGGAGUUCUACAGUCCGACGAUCUGGCCCUGGUGGCAUGCGGGGAGGAAGAGGUGGCCUCAUGGAUCGUUGUGGUCCCGGUGGAAUGUUCAGAGGUGGCCGUGGUGGAGACAGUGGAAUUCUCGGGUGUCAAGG: 0.423
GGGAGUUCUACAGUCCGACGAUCGUCCUGUGCUACACAUCGUAUGUACCGAAUCGGGGAAAAAGGGAAAAAGGGAAAAAGGGAAAGUAUUAUGUUACGCCGUUCGGAUCUGCAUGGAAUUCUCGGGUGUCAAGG: -0.163

Study 6 — method: RNA Bind-n-Seq; molecule type: RNA; medium: in vitro; tested at: 365 nM; baseline: no-protein control; reading: higher = stronger binding; quantity: RBNS enrichment (R)
Target: RNA binding protein fox-1 homolog 2, RRM domain, GST-SBP tag (RBFOX2, Homo sapiens, UniProt O43251-10, residues 100-194)
Notes: natural RNA segment, single round, ends assumed
Target sequence (chain): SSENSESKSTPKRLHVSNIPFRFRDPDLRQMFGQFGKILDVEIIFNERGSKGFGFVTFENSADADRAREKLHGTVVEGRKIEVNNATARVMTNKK
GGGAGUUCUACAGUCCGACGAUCCUGAGAGUGGACAGAGGAGAGGAGAGGGUCAGAAAUGAACGCUCUUCUAUUUCUUGUCAUUACCAAGCCAAUUACUUUUGCCAAAUUUUUCUGUGAUCUGCCCUGAUUAAUGGAAUUCUCGGGUGCCAA: 0.242
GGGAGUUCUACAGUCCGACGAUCGAUAGAGCAGGGCAUGGGUGCUGGCCUCAGUGCUCAGCCUGCUCUUUAAUAAAGGUACCUCUUUUCUAGCCAUGUCGGAAUGAGUGGAGAAGAGGAGGGUGGGACACAGGUGGAAUUCUCGGGUGCCAA: 0.403
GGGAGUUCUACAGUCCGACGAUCGAAAGUUAACAUAGUGUGAAUGAAAGUCUGGCCAACAGAGCAGUAGAUGAUAUAACAAAGAAAGCAUGCUUUCUGAGGAGAUAGUGGGGAUAAUCCCUGAAGAGUUGGCAUGGAAUUCUCGGGUGCCAA: 3.01
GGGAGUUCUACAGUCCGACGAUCCUGGGGAAGCAGAUGACUCUUCCACUGGGGCGGAAGGGGCACCCACUGUGUCCCGAAGGGGCAGUCAAAGUGCAAUAUUAUUGAAACUUCCCUCCCUACACACCCAGUGCUGGAAUUCUCGGGUGCCAA: 0.516
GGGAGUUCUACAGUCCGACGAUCGCUCCUUUGAGAGCACCAGAAACGCUUAGGGAGACACCUGUGUUGAGGCCACACUGGGCGCGGUGCCAGAGGCCCCUGGUCAGGCCAUGCCCCUGCAGUGUCCUUCGUUCUGGAAUUCUCGGGUGCCAA: 0.343
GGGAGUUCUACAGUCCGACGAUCGACGCCACCGCUGCUCUUCUUGCGUUUUUGUAAUCUUUUCAUUUUUGAAGCUUCCAAUUUGCUUGCUGCUGCUGCUGCCUGGGGGCCAGGACAGAGGUAGUGGCGGCCCCUGGAAUUCUCGGGUGCCAA: 0.769
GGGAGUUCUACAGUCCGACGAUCAUGCCUGUAUGCCUUUUUCUGGUCCAAUUGUAAAUAAAAUGCCAUUGUCCUGUUGUCUCAACUCGAAUGCAAGGGUGCGGAUUGAAGUGUGAUGGUUUCACCAGGUGGGUUGGAAUUCUCGGGUGCCAA: 3.87
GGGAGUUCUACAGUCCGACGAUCAGUAUUUUUGACAUUUUUCUUUAGAAAAAGGAAGAGCUAAAGGAAUUUUAUAAGUUUUGUUACAUGAAAGGUUGAAAUAUUGAGUGGUUGAAAGUGAACUGCUGUUUGCCUGGAAUUCUCGGGUGCCAA: 1.39
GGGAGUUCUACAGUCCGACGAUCCAAGCAGCUACCUACCUUGACUCCCAUAGCUUAGGACACAAGCCAGCUCUGAGCUACAUGAAGUAAUGAGCAGAGAUGAGUACUCACAGUCCAUCACCAGGCCAGCUUCUUGGAAUUCUCGGGUGCCAA: 0.352
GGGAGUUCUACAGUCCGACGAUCCAAGUUCGGAUGCGGGAACCUGGUCCCAGCUUGAGUUCCUGCCUUUCCCACCACAAAUUAUCAACUGGUUGAUGUGUACACUAAUUACAUUUCAGGAGGACUUAAUGCUAUGGAAUUCUCGGGUGCCAA: 0.215
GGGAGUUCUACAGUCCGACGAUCUCCUCCCUGGGACACUUGUAAGUACAAAGCUCCCCAGCCUUUGAGGCCUCAACCCCCCACCAUCUGUCUGUCCUCAGGGACCCUCCAGUAGGGGGACCAUUGGGGACAUCUGGAAUUCUCGGGUGCCAA: 0.257
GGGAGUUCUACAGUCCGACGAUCAGAAUUCCUUCAUGGUUGAAGAUGUGAAUAAUUGCACAUGAUCUCUUAGAGGAACUGUAAAUCUAUUGCCCAGUCAUAACAUUUUGAGCUGCAUUUAAGUAGACUAUGGAUGGAAUUCUCGGGUGCCAA: 0.481

Excerpt of the above (study 3):
ICAKASLCAAFSV [R5A]: 0.139
ICAKRSLCAAFAV [S12A]: 0.658
ICAARSLCAAFSV [K4A]: 0.37
ICAKRALCAAFSV [S6A]: 0.867
ICAKRSACAAFSV [L7A]: -0.0193
